Measurements gathered from unrelated publications.
Every numbered part comes from another study and shows a few of its results, in no order. Substitutions count along the parent as printed.

Sample 1 — method: DHFR PCA, deep sequencing; medium: yeast; with: (+)-ABA 17 µM; baseline: wild-type fitted maximum; direction: higher = stronger binding
Target: ABI1, truncated, D143A, DHFR fusion (Arabidopsis thaliana)
Notes: methotrexate growth selection, single substitutions
Parent: PYL1, truncated, DHFR fusion (Arabidopsis thaliana); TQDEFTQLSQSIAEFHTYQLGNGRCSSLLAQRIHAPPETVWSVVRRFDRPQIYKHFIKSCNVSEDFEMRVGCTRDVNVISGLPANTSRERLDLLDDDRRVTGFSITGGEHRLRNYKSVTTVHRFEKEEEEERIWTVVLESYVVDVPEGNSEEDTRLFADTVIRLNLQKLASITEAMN; partner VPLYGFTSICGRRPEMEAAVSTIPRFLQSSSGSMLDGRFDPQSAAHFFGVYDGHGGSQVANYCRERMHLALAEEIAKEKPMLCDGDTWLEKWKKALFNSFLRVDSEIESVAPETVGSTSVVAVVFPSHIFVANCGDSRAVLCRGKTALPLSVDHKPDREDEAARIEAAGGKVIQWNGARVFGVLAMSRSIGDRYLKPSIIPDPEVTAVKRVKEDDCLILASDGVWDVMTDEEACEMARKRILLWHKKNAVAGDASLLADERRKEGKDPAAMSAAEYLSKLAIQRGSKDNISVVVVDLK
| Variant | relative binding score [%] |
| --- | --- |
| T106I | 117 |
| S171C | 82.2 |
| K168T | 86.9 |
| V62D | 8.3 |
| E14H | 56.4 |
| K126C | 94.8 |
| Q10I | 52 |
| Y53T | 1.44 |
| E129S | 93.7 |
| Q51H | 83.5 |
| N165I | -10 |
| G148L | 26.4 |
| D65A | 75.2 |
| L29G | -7.6 |
| S59L | 31.2 |
| T101F | 98.7 |
| R74H | -13.6 |
| L164C | 84.4 |

Sample 2 — target: CCNB2, cyclin fold, Cln2 fusion (human); method: yeast growth competition, sequencing; medium: yeast; notes: weak parent motif; baseline: not given; direction: higher = stronger binding
Parent: HASPIN docking peptide (human); ASLRSVLFGLMNS; partner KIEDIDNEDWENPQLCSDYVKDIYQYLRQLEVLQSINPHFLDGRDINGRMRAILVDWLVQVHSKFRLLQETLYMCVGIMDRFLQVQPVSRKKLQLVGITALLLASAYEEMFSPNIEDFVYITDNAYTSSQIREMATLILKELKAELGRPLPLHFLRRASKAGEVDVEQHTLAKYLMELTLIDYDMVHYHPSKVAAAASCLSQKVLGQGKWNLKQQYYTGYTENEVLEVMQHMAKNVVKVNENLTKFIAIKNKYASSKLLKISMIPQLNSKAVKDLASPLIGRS
| Variant | normalised enrichment score |
| --- | --- |
| ASLRSVLFGAMNS [L10A] | 0.169 |
| ASLRSVLFGLMNA [S13A] | -0.272 |
| ASLRSVLFALMNS [G9A] | 0.678 |
| AALRSVLFGLMNS [S2A] | 0.229 |
| ASLRSVLAGLMNS [F8A] | -0.299 |
| ASARSVLFGLMNS [L3A] | 0.0868 |

Sample 3 — target: ATF7, bZIP domain (human); method: DHFR protein complementation; medium: yeast; baseline: wild-type JUN-FOS pair; direction: higher = stronger binding
Notes: single substitutions, most at no-binding floor
Parent: JUN, bZIP domain (human); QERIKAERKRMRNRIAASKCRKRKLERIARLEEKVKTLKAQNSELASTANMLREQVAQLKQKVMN; partner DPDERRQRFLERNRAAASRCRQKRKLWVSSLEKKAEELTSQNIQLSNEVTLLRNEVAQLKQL
| Variant | binding fitness [natural log] |
| --- | --- |
| T37G | -1.03 |
| E32A | -0.711 |
| V35H | -1.55 |
| L59W | -1.32 |
| R30S | -0.743 |
| T48A | -1.05 |
| S43M | -0.826 |
| T37L | -0.84 |
| R53M | -1.42 |
| K39N | -1.03 |
| V35T | -1.42 |
| K39C | -1.08 |
| Q55D | -1.37 |
| K34T | -0.986 |
| A46K | -0.791 |
| M51G | -1.12 |
| S47F | -0.962 |
| A49Q | -1.4 |
| L52P | -1.51 |
| S47T | -0.895 |
| V56F | -1.38 |
| A49E | -1.44 |
| A46Q | -0.708 |
| L31W | -1.36 |
| L59S | -1.32 |

Sample 4 — method: RNA Bind-n-Seq; form: RNA; medium: in vitro; concentration: not given; baseline: input RNA pool; direction: higher = stronger binding
Target: RING finger protein unkempt homolog, zinc fingers 1-6, GST-SBP tag (UNK, Homo sapiens, UniProt Q9C0B0, residues 30-357)
Notes: RNA with constant flanks, human and mouse sites, ends assumed
Constant ends, left off below: GGGAGUUCUACAGUCCGACGAUC … CAACAGAGGAUUGAGCAUCA
Construct (chain): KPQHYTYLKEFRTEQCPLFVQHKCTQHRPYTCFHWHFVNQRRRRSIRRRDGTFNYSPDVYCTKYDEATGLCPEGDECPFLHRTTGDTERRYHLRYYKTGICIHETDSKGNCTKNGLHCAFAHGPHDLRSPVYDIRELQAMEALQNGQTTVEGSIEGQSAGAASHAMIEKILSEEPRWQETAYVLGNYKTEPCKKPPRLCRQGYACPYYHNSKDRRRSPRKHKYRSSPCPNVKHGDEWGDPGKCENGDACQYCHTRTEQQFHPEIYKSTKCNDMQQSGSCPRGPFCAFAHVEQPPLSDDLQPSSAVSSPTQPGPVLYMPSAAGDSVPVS
| Strand | bound/input enrichment [ratio] |
| --- | --- |
| AGUCCAAUAUCAAGCAUAUCUGCAGAUUCUUUCUAUGCAGAUAUUGAUCACCAUACUCCACGAAAUUAUGUCCUAAUUGACGACAUUGGAGAGAUCACCAAAGGAACAGCGGCAUUAAGC | 0.235 |
| GAGAUAAUGGCCUCAGCUGCUAAGGAAUUUAAAAUGGACAACUUUUCACCUAAAGCUGGCACUAGCAAAUUGCAGCAGACAGUACCAGCUGAUGCGUCUCCUGAUUCUAAGUGUCCUAUA | 0.188 |
| ACCCUGGAAGACCCUUGGAUUGGGAGUGAGAGUGACAAAUUUAUCCUCUUGGGCUAUCUCGACCAGCUGCGUAAAGAUCCAGCUCUUCUGUCCUCUGAAGCAGUGCUUCCUGACCUGACC | 0.222 |
| CACUCCCACGGUGGAGGGGACAGCAUGAUGAUGAUGCCUAUGACCUUCUACUUUGACUUUAAGAAUGUGAAUCUAUUGUUUUCCGGUUUGGUAAUCAAUACACCUGGAGAAAUGGCUGGA | 0.114 |
| CACUCUGGGGAAGAAGGAGUACAUUGAAGGGAGAUUGGCACCUAGUGGCUGGGAGCUUGCCAGGAACCCAGUGGCCAGGGAGCGUGGCACUUACCUUUGUCCCUUGCUUCAUUCUUGUGA | 0.129 |
| AAUACAGUUUUUCAUUCUGUUCUUGCUGGGCUAGUGUGUGGUCUUGGAACAUGGUAUUUGCUCCCAAACCGAGUAACCUUGCUGUAUGGCAGCCCUGGGGCGACUGCUGUGCUCUUUGUG | 0.345 |
| GAUCUGUACCACAAAGGGCUACUCAAGUUCUCUCUGGAUGCCCUUUCUCUGAGGGACACUCUGGUCAUGUUGGUUGUUGAUAUGUCAAAGCCUUGGACUGCUUUGGAUUCCUUACAGAAA | 0.0571 |
| CCAGAAGCUGGGAACACACUGCGUCGUUGGCGCUGCCACGUACAGAGAUUCUUCUACCGUAUCUAUGCCACCCUACGCAUCGAGGAGCUUUUCAGCAUCAUCCGAGACUUUCCAGACUCC | 0.181 |
| GGACCACAGGGGGGUCCUGUUCUGAACACAGGCCACCCACUGGGUGUGAACUCGGAUCCCUUCCUUAUGGCGGCCGGUUCUCUUGGUGGAAAUCUGACCCCAUUUCCAAGGAACCCAUCU | 0.0406 |
| AGUCCAUGUUAAGUUUCAUUUAAAAGAUGCAUUUAUAUUUUGUUCUGUAAUAUUCUACUGUAGGUGAAAUCUUCAAAAAUCAAGAGACUGGGUAGUUAAGAAUAUAUGAAUGACUAAUAU | 0.642 |
| GAUGUGGAAAUAAUCUUUAAUGAGCGCGGCUCCAAGGGAUUCGGGUUCGUAACUUUCGAGAAUAGUGCUGAUGCAGACAGGGCCAGGGAGAAAUUGCACGGCACCGUGGUAGAGGGCCGU | 0.999 |

Excerpt of the above (sample 1):
| Variant | relative binding score [%] |
| --- | --- |
| T106I | 117 |
| S171C | 82.2 |
| K168T | 86.9 |
| V62D | 8.3 |
